Published values pooled from the literature.
Protocols differ between the studies behind these lines. Numbers after ± are the reported error.
UniProt Q9Y6Y9, sequence (whole entry, looked up): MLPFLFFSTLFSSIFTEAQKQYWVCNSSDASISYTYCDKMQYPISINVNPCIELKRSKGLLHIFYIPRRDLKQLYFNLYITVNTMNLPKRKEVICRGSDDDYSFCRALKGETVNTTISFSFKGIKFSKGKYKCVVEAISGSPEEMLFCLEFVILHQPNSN
UniProt Q06911, sequence (whole entry, looked up): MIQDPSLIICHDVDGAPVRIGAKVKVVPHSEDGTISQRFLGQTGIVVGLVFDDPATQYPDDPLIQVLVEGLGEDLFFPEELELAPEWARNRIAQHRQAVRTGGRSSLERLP
UniProt Q9H4M9, sequence (whole entry, looked up): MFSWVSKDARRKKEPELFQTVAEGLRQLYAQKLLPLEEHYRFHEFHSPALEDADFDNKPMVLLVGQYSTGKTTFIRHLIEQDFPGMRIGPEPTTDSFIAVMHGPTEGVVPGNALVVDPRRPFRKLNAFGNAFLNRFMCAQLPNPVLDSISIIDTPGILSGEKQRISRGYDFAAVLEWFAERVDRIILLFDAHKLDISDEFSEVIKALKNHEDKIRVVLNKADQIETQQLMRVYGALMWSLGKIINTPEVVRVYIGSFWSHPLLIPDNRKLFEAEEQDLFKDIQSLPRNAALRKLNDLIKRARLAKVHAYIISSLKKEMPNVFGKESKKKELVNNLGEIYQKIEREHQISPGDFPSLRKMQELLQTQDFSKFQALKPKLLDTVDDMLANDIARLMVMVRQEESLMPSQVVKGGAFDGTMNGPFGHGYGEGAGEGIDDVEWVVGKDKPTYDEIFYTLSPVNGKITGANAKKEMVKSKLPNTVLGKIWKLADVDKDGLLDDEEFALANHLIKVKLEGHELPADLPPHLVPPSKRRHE
UniProt Q07741, sequence (whole entry, looked up): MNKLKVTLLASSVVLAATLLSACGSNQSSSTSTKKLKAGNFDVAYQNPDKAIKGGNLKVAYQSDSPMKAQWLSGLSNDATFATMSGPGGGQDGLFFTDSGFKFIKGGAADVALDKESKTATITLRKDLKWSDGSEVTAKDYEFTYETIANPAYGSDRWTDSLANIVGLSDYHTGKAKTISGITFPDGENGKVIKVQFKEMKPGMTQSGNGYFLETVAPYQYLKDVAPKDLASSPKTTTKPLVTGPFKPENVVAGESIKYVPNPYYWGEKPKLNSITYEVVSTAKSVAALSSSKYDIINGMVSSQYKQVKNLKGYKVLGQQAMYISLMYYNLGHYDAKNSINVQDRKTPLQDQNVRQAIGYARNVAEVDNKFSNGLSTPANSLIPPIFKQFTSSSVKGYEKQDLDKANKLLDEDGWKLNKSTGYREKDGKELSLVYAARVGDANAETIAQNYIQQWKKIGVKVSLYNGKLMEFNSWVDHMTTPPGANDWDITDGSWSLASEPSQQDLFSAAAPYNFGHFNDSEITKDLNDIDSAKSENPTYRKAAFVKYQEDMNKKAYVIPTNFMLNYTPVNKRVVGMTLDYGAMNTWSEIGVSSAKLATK
UniProt P22455, sequence (whole entry, looked up): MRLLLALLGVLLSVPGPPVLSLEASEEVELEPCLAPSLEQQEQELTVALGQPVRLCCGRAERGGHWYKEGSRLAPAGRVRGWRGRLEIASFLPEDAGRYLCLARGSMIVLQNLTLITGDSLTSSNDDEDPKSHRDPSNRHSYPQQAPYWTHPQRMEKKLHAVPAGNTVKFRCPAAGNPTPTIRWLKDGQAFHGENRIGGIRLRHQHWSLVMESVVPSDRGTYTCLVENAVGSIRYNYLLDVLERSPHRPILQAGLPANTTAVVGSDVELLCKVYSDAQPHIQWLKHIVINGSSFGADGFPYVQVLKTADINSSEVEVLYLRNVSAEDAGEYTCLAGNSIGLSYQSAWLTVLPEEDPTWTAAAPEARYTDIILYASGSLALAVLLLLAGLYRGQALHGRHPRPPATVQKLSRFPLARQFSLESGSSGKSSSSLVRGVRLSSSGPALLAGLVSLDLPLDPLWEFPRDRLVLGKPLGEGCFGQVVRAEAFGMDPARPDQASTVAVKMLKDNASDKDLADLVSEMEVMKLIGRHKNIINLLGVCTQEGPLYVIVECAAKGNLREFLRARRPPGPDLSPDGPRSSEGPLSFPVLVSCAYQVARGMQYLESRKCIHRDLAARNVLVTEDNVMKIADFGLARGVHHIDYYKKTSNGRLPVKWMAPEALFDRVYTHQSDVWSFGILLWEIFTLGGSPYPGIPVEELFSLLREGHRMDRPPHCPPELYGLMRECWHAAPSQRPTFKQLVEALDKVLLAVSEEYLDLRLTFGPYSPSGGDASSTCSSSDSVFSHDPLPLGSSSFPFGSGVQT
UniProt P63104, sequence (whole entry, looked up): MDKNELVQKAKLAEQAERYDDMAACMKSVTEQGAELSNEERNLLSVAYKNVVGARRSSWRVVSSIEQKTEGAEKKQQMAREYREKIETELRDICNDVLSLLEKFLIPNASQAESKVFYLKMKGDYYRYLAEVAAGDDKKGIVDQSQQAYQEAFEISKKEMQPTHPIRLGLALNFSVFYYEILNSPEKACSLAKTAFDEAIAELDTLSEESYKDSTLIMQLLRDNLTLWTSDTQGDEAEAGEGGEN
UniProt P10686, sequence (whole entry, looked up): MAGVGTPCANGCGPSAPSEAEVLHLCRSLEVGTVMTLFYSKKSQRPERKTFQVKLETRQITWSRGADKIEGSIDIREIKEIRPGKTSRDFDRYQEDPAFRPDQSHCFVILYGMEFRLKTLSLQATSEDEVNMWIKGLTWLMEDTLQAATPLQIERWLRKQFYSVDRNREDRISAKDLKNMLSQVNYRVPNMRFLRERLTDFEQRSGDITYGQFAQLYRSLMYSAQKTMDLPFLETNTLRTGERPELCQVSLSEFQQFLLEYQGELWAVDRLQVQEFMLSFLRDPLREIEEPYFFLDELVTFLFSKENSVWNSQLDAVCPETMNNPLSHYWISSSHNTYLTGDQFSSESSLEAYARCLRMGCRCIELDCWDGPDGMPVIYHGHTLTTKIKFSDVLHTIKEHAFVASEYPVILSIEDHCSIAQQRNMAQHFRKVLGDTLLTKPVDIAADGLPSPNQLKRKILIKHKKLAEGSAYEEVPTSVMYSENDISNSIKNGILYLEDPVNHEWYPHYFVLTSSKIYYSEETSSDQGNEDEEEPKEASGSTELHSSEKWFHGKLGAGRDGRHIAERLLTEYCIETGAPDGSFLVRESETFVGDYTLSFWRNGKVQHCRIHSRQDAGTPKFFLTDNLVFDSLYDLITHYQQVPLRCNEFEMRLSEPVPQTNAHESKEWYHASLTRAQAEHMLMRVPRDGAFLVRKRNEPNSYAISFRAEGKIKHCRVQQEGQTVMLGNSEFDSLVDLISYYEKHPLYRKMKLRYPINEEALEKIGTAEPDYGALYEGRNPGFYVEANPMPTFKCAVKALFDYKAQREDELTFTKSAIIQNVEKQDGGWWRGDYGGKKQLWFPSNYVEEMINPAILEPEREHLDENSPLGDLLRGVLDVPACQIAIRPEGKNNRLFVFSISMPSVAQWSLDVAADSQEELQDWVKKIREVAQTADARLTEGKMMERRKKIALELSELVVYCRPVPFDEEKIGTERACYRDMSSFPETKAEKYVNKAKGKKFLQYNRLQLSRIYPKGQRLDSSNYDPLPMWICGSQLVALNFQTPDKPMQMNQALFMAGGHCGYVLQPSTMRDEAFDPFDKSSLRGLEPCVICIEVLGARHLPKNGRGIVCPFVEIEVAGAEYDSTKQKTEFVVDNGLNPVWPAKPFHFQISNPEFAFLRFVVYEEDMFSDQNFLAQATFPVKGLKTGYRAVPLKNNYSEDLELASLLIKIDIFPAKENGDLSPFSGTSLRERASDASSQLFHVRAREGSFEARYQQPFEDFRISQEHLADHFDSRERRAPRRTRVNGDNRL
UniProt Q9H2X3, sequence (whole entry, looked up): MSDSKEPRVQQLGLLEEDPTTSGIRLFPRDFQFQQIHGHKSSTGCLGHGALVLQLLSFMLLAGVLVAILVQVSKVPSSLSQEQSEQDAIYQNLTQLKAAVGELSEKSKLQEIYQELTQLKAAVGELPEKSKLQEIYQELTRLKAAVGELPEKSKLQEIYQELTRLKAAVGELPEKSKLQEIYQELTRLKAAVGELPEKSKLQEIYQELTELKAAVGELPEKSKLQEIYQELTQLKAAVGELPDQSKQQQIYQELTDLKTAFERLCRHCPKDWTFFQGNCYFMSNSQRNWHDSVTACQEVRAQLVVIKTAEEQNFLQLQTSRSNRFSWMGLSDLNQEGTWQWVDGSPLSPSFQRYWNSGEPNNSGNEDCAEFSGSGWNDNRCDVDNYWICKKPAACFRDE
UniProt Q9FIP9, sequence (whole entry, looked up): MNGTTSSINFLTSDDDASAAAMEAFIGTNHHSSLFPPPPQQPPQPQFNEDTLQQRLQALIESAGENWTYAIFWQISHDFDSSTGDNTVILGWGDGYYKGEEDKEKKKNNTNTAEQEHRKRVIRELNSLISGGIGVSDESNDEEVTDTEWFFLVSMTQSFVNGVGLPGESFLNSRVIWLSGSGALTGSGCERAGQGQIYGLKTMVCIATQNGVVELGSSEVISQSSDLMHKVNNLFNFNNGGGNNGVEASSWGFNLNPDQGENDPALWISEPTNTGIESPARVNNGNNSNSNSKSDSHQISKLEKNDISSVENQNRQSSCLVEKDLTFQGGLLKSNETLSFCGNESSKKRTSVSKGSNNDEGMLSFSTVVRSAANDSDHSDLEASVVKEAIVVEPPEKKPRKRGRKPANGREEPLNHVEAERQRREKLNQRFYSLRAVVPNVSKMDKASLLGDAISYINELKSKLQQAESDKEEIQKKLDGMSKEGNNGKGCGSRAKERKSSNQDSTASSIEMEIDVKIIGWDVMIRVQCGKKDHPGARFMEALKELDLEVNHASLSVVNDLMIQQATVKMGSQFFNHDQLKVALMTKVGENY
UniProt P63165, sequence (whole entry, looked up): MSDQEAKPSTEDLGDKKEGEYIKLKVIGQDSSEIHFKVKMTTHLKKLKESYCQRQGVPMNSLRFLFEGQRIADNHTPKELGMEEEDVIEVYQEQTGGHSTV

CC[C@H](C)[C@H](NC(=O)[C@H](CCCNC(=N)N)NC(=O)[C@H](CCCCN)NC(=O)[C@@H](NC(=O)[C@H](C)NC(=O)[C@H](CCCNC(=N)N)NC(=O)[C@H](CCC(N)=O)NC(=O)[C@H](CO)NC(=O)[C@H](CCCCN)NC(=O)[C@H](CC(N)=O)NC(=O)[C@@H](N)CCCNC(=N)N)[C@@H](C)O)C(=O)N[C@@H](COP(=O)(O)O)C(=O)N[C@@H](Cc1c[nH]cn1)C(=O)N[C@@H](CCSC)C(=O)N1CCC[C@H]1C(=O)N[C@@H](CO)C(=O)N[C@@H](CCCNC(=N)N)C(=O)N1CCC[C@H]1C(=O)N[C@@H](CCC(=O)O)C(=O)N[C@@H](CC(C)C)C(=O)N[C@@H](CO)C(=O)N[C@@H](C)C(=O)N[C@H](C(=O)N[C@@H](C)C(=O)N[C@H](C(=O)N[C@@H](CC(=O)O)C(=O)N[C@@H](CC(C)C)C(=O)N[C@@H](CCCNC(=N)N)C(=O)N[C@@H](CCCCN)C(=O)N[C@@H](CC(=O)O)C(=O)N[C@@H](CCCCN)C(=O)N[C@@H](C)C(=O)N[C@@H](CCCCN)C(=O)N[C@@H](COP(=O)(O)O)C(=O)N[C@@H](CS)C(=O)OC)[C@@H](C)O)C(C)C gave a Kd of 230 nM (YWHAZ (Homo sapiens, UniProt P63104); binding, stopped-flow fluorescence polarization).
The Kd of N[C@@H](Cc1ccccc1)C(=O)N[C@@H](CCC(=O)O)C(=O)N[C@@H](CCC(=O)O)C(=O)N[C@@H](CC(=O)O)C(=O)O is reported as over 100 nM (LY96 (Homo sapiens, UniProt Q9Y6Y9); binding, SPR).
For CC[C@H](C)[C@H](NC(=O)[C@H](Cc1c[nH]cn1)NC(=O)[C@H](CCCCNC(=O)[C@@H](NC(=O)[C@H](CCCCN)NC(=O)CSC[C@H](NC(=O)[C@H](Cc1ccccc1)NC(=O)[C@H](CCCCNC(=O)[C@H](CC(C)C)NC(=O)[C@@H]1CCCN1C(=O)[C@H](CCCCN)NC(=O)C[C@@H]1O[C@@H](C)[C@@H](O)[C@@H](O)[C@@H]1O)NC(=O)[C@H](CC(C)C)NC(=O)[C@@H]1CCCN1C(=O)[C@H](CCCCN)NC(=O)c1ccc(O[C@@H]2O[C@H](CO)[C@H](O)[C@H](O)[C@H]2O)cc1)C(N)=O)[C@@H](C)CC)NC(=O)[C@@H](NC(=O)[C@H](CCCCN)NC(=O)CSC[C@H](NC(=O)[C@H](Cc1ccccc1)NC(=O)[C@H](CCCCNC(=O)[C@H](CC(C)C)NC(=O)[C@@H]1CCCN1C(=O)[C@H](CCCCN)NC(=O)C[C@@H]1O[C@@H](C)[C@@H](O)[C@@H](O)[C@@H]1O)NC(=O)[C@H](CC(C)C)NC(=O)[C@@H]1CCCN1C(=O)[C@H](CCCCN)NC(=O)c1ccc(O[C@@H]2O[C@H](CO)[C@H](O)[C@H](O)[C@H]2O)cc1)C(N)=O)[C@@H](C)CC)C(N)=O, the Kd was 75 nM (lecA (Pseudomonas aeruginosa, UniProt Q05097); binding, ITC; pH 7.5).
CC[C@H](C)[C@H](NC(=O)CNC(C)=O)C(=O)N[C@@H](CCCNC(=N)N)C(=O)N[C@@H](CCC(=O)O)C(=O)N[C@@H](C)C(=O)N[C@H](C(=O)N[C@@H](CC(C)C)C(=O)N[C@@H](CCCNC(=N)N)C(=O)N[C@@H](C)C(=O)N[C@@H](Cc1c[nH]c2ccccc12)C(=O)N[C@@H](CCC(=O)O)C(=O)N[C@@H](CCCNC(=N)N)C(=O)N[C@@H](CCCNC(=N)N)C(=O)N[C@@H](Cc1ccc(O)cc1)C(=O)NCC(=O)N[C@@H](Cc1ccccc1)C(=O)N1CCC[C@H]1C(=O)N[C@@H](CCCNC(=N)N)C(=O)N1CCC[C@H]1C(=O)N[C@@H](CC(C)C)C(=O)N[C@@H](CCCNC(=N)N)C(=O)N[C@@H](CO)C(=O)N[C@@H](CCC(=O)O)C(N)=O)[C@@H](C)O has a Kd of 175 ± 19 nM (Antirepressor protein CarS (carS, Myxococcus xanthus, UniProt Q06911); isothermal titration calorimetry; pH 7.5, 20 °C).
O=C(Cc1cccs1)N[C@H](B(O)O)c1cccc(C(=O)O)c1 gave a Kd of 90 nM (Beta-lactamase ADC-7 (Acinetobacter baumannii, UniProt Q6DRA1)).
For COc1cc(OC)c2c(=O)c(OCCCCn3cnc4cc(F)ccc4c3=O)c(-c3cc(OC)c(OC)c(OC)c3)oc2c1, the Kd was 12 nM (CP, capsid (Tobacco mosaic virus, UniProt P69687); binding, MST).
N=C(N)NCCC[C@H](NC(=O)[C@H](Cc1ccccc1)NC(=O)[C@@H]1CCCN1C(=O)[C@H](CO)NC(=O)[C@H](Cc1ccccc1)NC(=O)CNC(=O)[C@@H]1CCCN1C(=O)[C@@H]1CCCN1C(=O)[C@@H](N)CCCNC(=N)N)C(=O)N[C@@H](CCCCNS(=O)(=O)c1ccc(C2=c3cc4c5c(c3Oc3c2cc2c6c3CCCN6CCC2)CCC[N+]=5CCC4)c(S(=O)(=O)[O-])c1)C(=O)O gave a Kd of 13100 ± 700 nM (Oligopeptide-binding protein OppA (oppA, Lactococcus lactis subsp. lactis, UniProt Q07741); binding, fluorescence anisotropy; pH 6, 30 °C, together with: dye-labelled peptide).
CC[C@H](C)[C@H](NC(=O)[C@@H](NC(=O)[C@H](Cc1c[nH]c2ccccc12)NC(=O)[C@H](CCC(=O)O)NC(=O)[C@H](CO)NC(=S)Nc1ccc2c(c1)C(=O)OC21c2ccc(O)cc2Oc2cc(O)ccc21)C(C)C)C(=O)N[C@H](C(=O)N[C@H](C(=O)N1CCC[C@H]1C(=O)N[C@@H](Cc1ccccc1)C(=O)N[C@@H](CC(C)C)C(=O)N[C@H](C(=O)N[C@@H](CC(N)=O)C(=O)N[C@@H](C)C(=O)O)[C@@H](C)O)[C@@H](C)CC)C(C)C gave a Kd of 3400 ± 300 nM (Rgg transcriptional regulator (Streptococcus pneumoniae, UniProt A0A0E7KI02); binder, fluorescence polarization; 20 min, pH 7.4, 20 °C, fluorescein-labelled peptide).
The Kd of CC[C@H](C)[C@H](NC(=O)[C@H](CC(C)C)NC(=O)[C@H](CC(C)C)NC(=O)CNC(=O)[C@H](CCCCN)NC(=O)[C@H](C)NC(=O)[C@H](CC(C)C)NC(=O)[C@H](CC(C)C)NC(=O)[C@H](CCCCN)NC(=O)[C@H](Cc1c[nH]c2ccccc12)NC(=O)[C@@H](N)CC(N)=O)C(=O)N[C@@H](CCCNC(=N)N)C(=O)N[C@@H](CCC(=O)O)C(=O)N[C@@H](CCCNC(=N)N)C(=O)N[C@@H](CC(C)C)C(=O)N[C@@H](CCCCN)C(=O)N[C@@H](CCCNC(=N)N)C(=O)O is reported as 59.1 ± 11.8 nM (Centrin-1, N-terminal 21 residues deleted (CEN1, Toxoplasma gondii, UniProt A0A125YHX7); isothermal titration calorimetry; pH 7.5, 25 °C, 5 mM EGTA, single-site fit).
With CC(C)C[C@H](NC(=O)[C@H](CCCNC(=N)N)NC(=O)[C@H](CCC(=O)O)NC(=O)[C@H](CCCCN)NC(=O)[C@H](CCCNC(=N)N)NC(=O)[C@H](CCCCN)NC(=O)[C@H](CCC(=O)O)NC(=O)[C@H](CC(C)C)NC(=O)[C@H](Cc1ccccc1)NC(=O)[C@H](CCCNC(=N)N)NC(=O)[C@H](C)NC(=O)[C@H](CC(C)C)NC(=O)[C@H](CO)NC(=O)[C@H](C)NC(=O)[C@H](CCCCN)NC(=O)[C@H](CCCNC(=N)N)NC(=O)[C@H](C)NC(=O)[C@H](CCC(N)=O)NC(=O)[C@@H]1CCCN1C(=O)[C@@H](NC(=O)[C@H](CO)NC(=O)c1ccc2c(c1)C(=O)OC21c2ccc(N(C)C)cc2Oc2cc(N(C)C)ccc21)C(C)C)C(=O)O the Kd was 5000 ± 1100 nM (Transcription factor MYC3 (MYC3, Arabidopsis thaliana, UniProt Q9FIP9); binding, fluorescence anisotropy; pH 8.0, apparent Kd, together with: 100 nM TMR-labelled JAZ peptide).
With CC[C@H](C)[C@H](NC(=O)[C@@H]1CSCc2cccc(c2)CSC[C@H](NC(=O)[C@@H](NC(=O)[C@H](Cc2ccc(O)cc2)NC(=O)[C@H](CO)NC(=O)[C@H](Cc2ccccc2)NC(=O)[C@H](CCSC)NC(C)=O)C(C)C)C(=O)N[C@@H]([C@@H](C)O)C(=O)N[C@@H](CC(C)C)C(=O)N[C@@H](CCCCN)C(=O)N[C@@H](CO)C(=O)N1)C(=O)N[C@@H](C)C(=O)N[C@@H](CCSC)C(=O)N[C@@H](Cc1c[nH]cn1)C(=O)NCC(=O)N[C@@H](CO)C(=O)NCC(=O)N[C@@H](CO)C(=O)NCC(=O)N[C@@H](CO)C(=O)N[C@@H](CC(=O)O)C(=O)N[C@@H](Cc1ccc(O)cc1)C(=O)N[C@@H](CCCCN)C(=O)N[C@@H](CC(=O)O)C(=O)N[C@@H](CC(=O)O)C(=O)N[C@@H](CC(=O)O)C(=O)N[C@@H](CC(=O)O)C(=O)N[C@@H](CCCCN)C(N)=O the Kd was over 10000 nM (FGFR4 (Homo sapiens, UniProt P22455); binding, BLI).
With CC(=O)N[C@@H](Cc1ccc(O)cc1)C(=O)N[C@@H](CC(N)=O)C(=O)N1CCC[C@H]1C(=O)N[C@@H](Cc1ccccc1)C(=O)N[C@@H](CCC(=O)O)C(=O)N[C@@H](CCC(=O)O)C(=O)NCC(=O)NCC(N)=O the Kd was 35700 nM (EH domain-containing protein 1 (Homo sapiens, UniProt Q9H4M9); binding, ITC).
With N=C(N)NCCC[C@H](NC(=O)[C@@H]1CCCN1C(=O)[C@H](CCCNC(=N)N)NC(=O)[C@H](Cc1c[nH]c2ccccc12)NC(=O)CNC(=O)[C@@H](N)Cc1c[nH]cn1)C(=O)N[C@@H](CO)C(=O)NCC(=O)N[C@@H](CCCCN)C(=O)N[C@@H](CC(N)=O)C(=O)N[C@@H](CCC(N)=O)C(=O)N[C@@H](CC(N)=O)C(=O)O the Kd was 88.5 nM (Small ubiquitin-related modifier 1 (Homo sapiens, UniProt P63165); binding, BLI).
The Kd of CC(=O)NC1C(OC2C(O)C(CO)OC(O)C2OC2OC(C)C(O)C(O)C2O)OC(CO)C(O)C1O (centres unmarked) is reported as 4.4 nM (sly, domain 4 (Streptococcus suis, UniProt Q55996); binding).
CSCC[C@H](NC(=O)[C@H](CO)NC(=O)[C@H](CC(C)C)NC(=O)[C@H](CC(=O)O)NC(=O)[C@H](CC(C)C)NC(=O)[C@H](Cc1ccc(OP(=O)(O)O)cc1)NC(=O)[C@H](CCC(=O)O)NC(=O)[C@H](CCC(N)=O)NC(=O)[C@H](CC(N)=O)NC(=O)[C@H](CO)NC(=O)[C@@H](N)[C@@H](C)O)C(N)=O gave a Kd of 5670 ± 600 nM (1-phosphatidylinositol 4,5-bisphosphate phosphodiesterase gamma-1, N-terminal SH2 domain (Rattus norvegicus, UniProt P10686); N-SH2 domain binding, surface plasmon resonance).
With NCc1cn([C@@H]2[C@@H](OCCn3cc(COCCOCCOCCn4cc(-c5cc(OCCOCCO)c(C#Cc6cc(OCCOCCO)c(C#Cc7cc(OCCOCCO)c(-c8cn(CCOCCOCCOCc9cn(CCO[C@H]%10O[C@H](CO)[C@@H](O)[C@H](O)[C@@H]%10n%10cc(CN)nn%10)nn9)nn8)cc7OCCOCCO)cc6OCCOCCO)cc5OCCOCCO)nn4)nn3)O[C@H](CO)[C@@H](O)[C@@H]2O)nn1 the Kd was 33000 ± 11000 nM (C-type lectin domain family 4 member M, extracellular domain (CLEC4M, Homo sapiens, UniProt Q9H2X3); binding).
CC[C@H](C)[C@H](NC(=O)[C@H](CCC(N)=O)NC(=O)[C@H](CO)NC(=O)[C@H](CC(C)(C)C)NC(=O)[C@H](CCC(=O)O)NC(=O)[C@H](CCC(=O)O)NC(=O)[C@H](CC(=O)O)NC(=O)[C@@H]1CCSCc2cccc(c2)CSCC[C@H](NC(=O)[C@H](C)NC(=O)[C@H](CC(=O)O)NC(=O)[C@H](CC(=O)O)NC(=O)[C@H](CCCNC(=N)N)NC(=O)CCNC(=O)CCNC(=O)CCCC[C@@H]2SC[C@@H]3NC(=O)N[C@@H]32)C(=O)N[C@@H](Cc2ccc3ccccc3c2)C(=O)N[C@@H](CC(=O)O)C(=O)N[C@@H]([C@@H](C)CC)C(=O)N[C@@H]([C@@H](C)CC)C(=O)N1)C(=O)N[C@@H](CCC(N)=O)C(=O)N[C@@H](CCC(=O)O)C(=O)N[C@@H](Cc1c[nH]c2ccccc12)C(N)=O gave a Kd of 1400 nM (Gamma-aminobutyric acid receptor-associated protein (Homo sapiens, UniProt O95166); binding, BLI; pH 7.4).

Excerpt of the above:
CC[C@H](C)[C@H](NC(=O)[C@H](CCCNC(=N)N)NC(=O)[C@H](CCCCN)NC(=O)[C@@H](NC(=O)[C@H](C)NC(=O)[C@H](CCCNC(=N)N)NC(=O)[C@H](CCC(N)=O)NC(=O)[C@H](CO)NC(=O)[C@H](CCCCN)NC(=O)[C@H](CC(N)=O)NC(=O)[C@@H](N)CCCNC(=N)N)[C@@H](C)O)C(=O)N[C@@H](COP(=O)(O)O)C(=O)N[C@@H](Cc1c[nH]cn1)C(=O)N[C@@H](CCSC)C(=O)N1CCC[C@H]1C(=O)N[C@@H](CO)C(=O)N[C@@H](CCCNC(=N)N)C(=O)N1CCC[C@H]1C(=O)N[C@@H](CCC(=O)O)C(=O)N[C@@H](CC(C)C)C(=O)N[C@@H](CO)C(=O)N[C@@H](C)C(=O)N[C@H](C(=O)N[C@@H](C)C(=O)N[C@H](C(=O)N[C@@H](CC(=O)O)C(=O)N[C@@H](CC(C)C)C(=O)N[C@@H](CCCNC(=N)N)C(=O)N[C@@H](CCCCN)C(=O)N[C@@H](CC(=O)O)C(=O)N[C@@H](CCCCN)C(=O)N[C@@H](C)C(=O)N[C@@H](CCCCN)C(=O)N[C@@H](COP(=O)(O)O)C(=O)N[C@@H](CS)C(=O)OC)[C@@H](C)O)C(C)C gave a Kd of 230 nM (YWHAZ (Homo sapiens, UniProt P63104); binding, stopped-flow fluorescence polarization).
